Measured values from different studies.
Parts stem from different laboratories: compare values within a part only.

Block 1 — method: RNA Bind-n-Seq; molecule type: RNA; medium: in vitro; concentration: 200 nM; setting: whole 134-nt RNA, ends assumed; with: 150 mM LiCl; reference: input library; direction: higher = stronger binding; endpoint: log2 enrichment; library: 7-deaza-guanosine replaces G
Target: Fragile X messenger ribonucleoprotein 1, C-terminal low-complexity region (Fmr1, Mus musculus, UniProt P35922)
Constant ends, left off below: GGGAGUUCUACAGUCCGACGAUC … UGGAAUUCUCGGGUGUCAAGG
UCCUGUGCUACACAUCGUAUGUACCGAAUCGGGGAGGGGAAAAAGGGGAAAAAAAGGGGAAAGUAUUAUGUUACGCCGUUCGGAUCUGCA: 0.37
UAACUUUAGAGGAGGAUCUGAUGGAUAUGGCAGUGGACGAGGAUUUGGGGAUGGCUAUAAUGGGUAUGGAGGAGGACCUGGAGGUGGCAA: -0.984
AAGUCCUGUGCUACACAUCGUAUGUACCGAAUCGGGGAAAGGGAAAGGGGAAAGGGAAAGUAUUAUGUUACGCCGUUCGGAUCUGCACUU: 0.178
UCCUGUGCUACACAUCGUAUGUACCGAAUCAAACCCCCAAACCCCCAAACCCCCCCAAAAAAGUAUUAUGUUACGCCGUUCGGAUCUGCA: 0.833
UCAAGUCCUGUGCUACACAUCGUAUGUACCGAAUCGGCCCGGCCCGGGCCCGGGAAAGUAUUAUGUUACGCCGUUCGGAUCUGCACUUCC: -1.27
UCAAGUCCUGUGCUACACAUCGUAUGUACCGAAUCGGGAGGGUUUUUGGGUGGGAAAGUAUUAUGUUACGCCGUUCGGAUCUGCACUUCC: -0.922
AGUCCUGUGCUACACAUCGUAUGUACCGAAUCGGGUUUUUGGUUUUUGGUUUUUGGGGAAAGUAUUAUGUUACGCCGUUCGGAUCUGCAC: -1.4
AGUCCUGUGCUACACAUCGUAUGUACCGAAUCGGAAAAAGGUUUUUUUGGAAAAAGGAAAGUAUUAUGUUACGCCGUUCGGAUCUGCACU: -3.25
GUCCUGUGCUACACAUCGUAUGUACCGAAUCAAACCCCCAAAUUUUUAAAUUUUUAAAAAAGUAUUAUGUUACGCCGUUCGGAUCUGCAC: 0.802
ACCAUGCAGGUGGGCAUCUUUGGGAGGUGGGGCAAGGGGGGGAUAGGGAGGGGGGUAACACUUUGGGAACAGGUGGUCCCAGGUCGUUUC: 1.18
GUCCUGUGCUACACAUCGUAUGUACCGAAUCGGGGUUUGGGGAAAGGGGAAAAAGGGGAAAGUAUUAUGUUACGCCGUUCGGAUCUGCAC: 0.604

Block 2 — method: RNA Bind-n-Seq; molecule type: RNA; medium: in vitro; concentration: 365 nM; reference: no-protein control; direction: higher = stronger binding; endpoint: RBNS enrichment (R)
Target: RNA binding protein fox-1 homolog 2, RRM domain, GST-SBP tag (RBFOX2, Homo sapiens, UniProt O43251-10, residues 100-194)
Setting: natural RNA segment, single round, ends assumed
Constant ends, left off below: GGGAGUUCUACAGUCCGACGAUC … UGGAAUUCUCGGGUGCCAA
Target sequence (chain): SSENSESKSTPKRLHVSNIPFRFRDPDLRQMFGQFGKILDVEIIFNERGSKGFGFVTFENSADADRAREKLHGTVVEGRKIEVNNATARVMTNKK
UUUCCCUAGAGGCAAACAUUUCUUAAAAUGUUUCAUUUUCAUUAAAAAUGAAAGCCAAAUUUAUAUGCCACCGAUUGCAGGACACAAGCACAGUUUUAAGAGUUGUAUGA: 1
CAGACUUUCUAAGUUAAAUUUUAAAAAUUUUGAUUGUUUGCCAUAUUGGGUGGGUUUACUCUUAGAAUCGCAUGCUGUAGAAAUGCUCAAAAGUGCAUAUGGGACUCAGU: 4.09
AAACUUGAAGAAAAAAGCCAAGGGCAAGUUAACUAAGAAGAAAACCCCAGUGAAGUCGGAGUCUUCCCCUGCUGAUCUGAGCCAAUCCGUAAGAGGACCCGUGAGGACAC: 0.388
UCCUUAAUCCAACUUAUACCGGGUUGGAGGCACUUGUACUAUUUAUUUCCUGGGAAAUUUUGGUCAAAAGCCAGCUUCUUUUGCUGUCUUUAAUAAGAAAAACUUGAAGU: 0.3
GUUUCUUUUUGUCUCCCCCACUAUUCAAGGACUCUCCUCUUUACCAAGAAGCACAGAAUUCUGCUGGGCCUUUGCUUGUUUAUUUUGCUUCCCGACUCUUCUCUUGGGGG: 0.818
UGGCCAGGGCAUCAGACACAGGAGGAUCCCAGAACGGCAGCACUGAGCCCCUGCUCCCAGAUCCCUCUGAACCGCCGAGCAACAGCAAAACUAUGUGACAACACUUCUCC: 0.575
GUCCUUCCCCAAAUGGGACCUGAGGAAAUAGCAGGUGUCCAGCUGAUGUGUUGGGCCUUUUCUAGGAAAGGGACCAAGCCCCUUCAAGUGGGGAGGCCCAGAGUUACCUG: 0.336
UUUUUUUGAGAUGGGGUUUCACUCUCUCACCCAGACUGGAGUACAGUGGGGAGAUCUCAGCUCACUGCAGCCUCUGCCUCCCAAGUUCAAGCGAUUCUCCUGUCUCAGCC: 0.286
CCCUGCCACUGCCAGCUCUUAGUACAGUCCCAACUACCGUAGACCAGGUGACAUUUGUUGACACCAUUCUCAGAGGUGUUGAAGAUUUAUCAUCUUGAAUCCUCCACAAA: 0.581
GUAUUUAUAGAUGGAAAUAUACUUUAUAUUUUGUAUCAUUGUGCCUAUAGCCUCUGCCACCUUGUAUAAACCCUGAUGUAUGCUAAGUGUUCUGGAUAUGAAUGUAUGUA: 1.01
AAACAAUUCUGAAAACUGGUCCCUGGUGGUCAGCAGGAAAUGAUCUUUAUUUUUAUGCUAACAACCUUAUUUAAUUAAAAGUGCUGAAACCUGGCAAACUUCUCUAGCAU: 0.423
UUUUUUUAAUGAAUCAAUAGCAGCGUCCAGUCCCCCAGGGCUGCUUCCUGCCUGCACCUGCGGUGACUGUGAGCAGGAUCCUGGGGCCGAGGCUGCAGCUCAGGGCAACG: 0.283

Block 3 — method: protein-binding microarray; molecule type: double-stranded DNA, one strand shown; medium: in vitro; concentration: not given; direction: higher = stronger binding; endpoint: E-score
Target: Transcription factor Sp1 (SP1, Homo sapiens, UniProt P08047, residues 1-785, full length assumed)
Chain of UniProt P08047 (whole entry, looked up): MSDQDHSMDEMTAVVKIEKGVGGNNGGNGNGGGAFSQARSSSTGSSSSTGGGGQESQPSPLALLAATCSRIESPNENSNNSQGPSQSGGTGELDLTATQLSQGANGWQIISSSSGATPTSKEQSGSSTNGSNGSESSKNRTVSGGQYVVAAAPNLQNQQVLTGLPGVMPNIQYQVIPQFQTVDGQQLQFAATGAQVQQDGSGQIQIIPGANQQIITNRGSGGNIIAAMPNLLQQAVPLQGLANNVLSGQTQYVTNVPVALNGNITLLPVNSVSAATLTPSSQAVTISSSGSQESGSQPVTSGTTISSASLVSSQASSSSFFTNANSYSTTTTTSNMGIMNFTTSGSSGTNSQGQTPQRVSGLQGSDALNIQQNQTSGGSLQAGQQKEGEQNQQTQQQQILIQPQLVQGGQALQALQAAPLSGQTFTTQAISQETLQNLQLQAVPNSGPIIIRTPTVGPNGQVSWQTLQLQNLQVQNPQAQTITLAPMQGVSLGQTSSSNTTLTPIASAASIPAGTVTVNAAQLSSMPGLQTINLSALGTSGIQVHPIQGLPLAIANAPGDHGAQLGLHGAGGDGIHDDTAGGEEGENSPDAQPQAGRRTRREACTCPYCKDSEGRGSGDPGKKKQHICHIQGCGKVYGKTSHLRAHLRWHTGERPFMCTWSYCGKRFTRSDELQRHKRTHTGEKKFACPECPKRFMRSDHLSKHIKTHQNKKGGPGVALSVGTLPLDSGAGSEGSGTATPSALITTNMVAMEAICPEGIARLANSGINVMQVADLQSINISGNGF
Setting: k-mer, scored over probes, only values ≥0.25
GGCATATA: 0.267
CTCCCCCC: 0.322
ACGGTGGG: 0.28
CCCCGCAC: 0.266
CCCCAACC: 0.265
CGCCCGCC: 0.367
CGCCCACC: 0.491
AAGGCGGG: 0.323
ACATGTCG: 0.273
ACTGTAAG: 0.259
TACACATA: 0.324
ATACGGTA: 0.253
CCTTTACG: 0.277
CATAGGGG: 0.294
ATGTATAC: 0.268
ACATATCA: 0.338
AACCCCAC: 0.35
ACAAATGG: 0.305
AATGTCAC: 0.275
ACCGCCCA: 0.32
CTACCCAC: 0.281
CTCCCCTC: 0.444
CACAACCC: 0.277
ATACGTAT: 0.271
CCCCTCGA: 0.332

Block 4 — method: protein-binding microarray; molecule type: double-stranded DNA, one strand shown; medium: in vitro; concentration: 250 nM; setting: 60-bp whole probe; with: salmon DNA 0.4 mg/ml; reference: random background probes; direction: higher = stronger binding; endpoint: log fluorescence; constant ends, left off below: GCCTAGCAC … GTCTTGATTCGCTTGACGCTGCTG
Target: Interferon regulatory factor 7, full length, phosphomimetic (IRF7, Homo sapiens, UniProt Q92985, residues 1-503, S101K/S471D/S472D/S475D/S476D/S477D/S483D/S484D/S487D)
Chain of UniProt Q92985 (whole entry, unmodified, looked up): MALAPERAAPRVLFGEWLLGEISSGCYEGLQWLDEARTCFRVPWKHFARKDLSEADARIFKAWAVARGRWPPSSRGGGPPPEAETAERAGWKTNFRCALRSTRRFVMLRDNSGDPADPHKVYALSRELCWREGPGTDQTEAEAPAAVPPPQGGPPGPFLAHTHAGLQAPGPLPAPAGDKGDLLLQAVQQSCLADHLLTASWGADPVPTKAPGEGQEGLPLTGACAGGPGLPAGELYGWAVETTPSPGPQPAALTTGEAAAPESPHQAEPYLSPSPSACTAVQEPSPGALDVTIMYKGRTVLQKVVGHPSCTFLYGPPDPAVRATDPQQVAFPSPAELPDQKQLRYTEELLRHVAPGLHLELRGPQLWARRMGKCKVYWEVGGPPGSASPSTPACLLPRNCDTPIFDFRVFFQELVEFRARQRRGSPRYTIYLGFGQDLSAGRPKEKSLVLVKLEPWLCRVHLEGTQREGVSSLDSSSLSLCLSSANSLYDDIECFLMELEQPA
GACGGTTTCGGGTTTCGAGACGTGCTA: 12.3 z-score
TTAGATATCAAACTGGATTAGTGCTAG: -0.0394 z-score
ATAGGTTCCGGTTTCGGTTAGTGCTAG: 11.4 z-score
GACGGATTCGGTTCCGGGACGTGCTAG: 4.73 z-score
AGAAACTTGTATTTGTCCCTGTGCTAG: 0.365 z-score
GACGATCTCAGTATCCAGACGTGCTAG: -0.269 z-score
TCATTTGTATTTTTGATACTGTGCTAG: 1.5 z-score
TTCGGTATCGGGACTGGGTTAGTGCTA: 0.331 z-score
ACCCCAAAGAGGGGCAGTGTGTGCTAG: 0.0682 z-score
TTAGGACTGGGACAGGGTTAGTGCTAG: 0.175 z-score
TCAGATTTCCACTTTCTACTGTGCTAG: 1.2 z-score
TTAGATTTCGACTTTCGGTTAGTGCTA: 3.4 z-score
GACAAACTGAGTCTCGAGACGTGCTAG: 0.651 z-score
TTACGTCTCGGACTGGGTTAGTGCTAG: 0.383 z-score
TCACCTGTCCATTCCTTACTGTGCTAG: 0.236 z-score
GATGGACTGGGTATCGGGACGTGCTAG: -0.601 z-score
TGAGATATCAGTTTCGATTAGTGCTAG: 8.12 z-score
GACGGACTGCTTCTCCTTACGTGCTAG: -0.278 z-score
TATTTTTTCTGAACCATTTTGTGCTAG: 1.17 z-score
TCACTCTTCTTTTGCTAACTGTGCTAG: 0.83 z-score
TCACTCTCTCTATTCTGTGGGTGCTAG: 0.58 z-score
TTAAGTTTCGGTCTCGGTTAGTGCTAG: 9.52 z-score
GGTCCTCTCTCTATTCAGAGGTGCTAG: 1.08 z-score
GACGGTCTCCTACTGCGGACGTGCTAG: -0.0748 z-score
TCATGTGTGTGTTTGTGACTGTGCTAG: -0.426 z-score

A few entries again (block 1):
UCCUGUGCUACACAUCGUAUGUACCGAAUCGGGGAGGGGAAAAAGGGGAAAAAAAGGGGAAAGUAUUAUGUUACGCCGUUCGGAUCUGCA: 0.37
UAACUUUAGAGGAGGAUCUGAUGGAUAUGGCAGUGGACGAGGAUUUGGGGAUGGCUAUAAUGGGUAUGGAGGAGGACCUGGAGGUGGCAA: -0.984
AAGUCCUGUGCUACACAUCGUAUGUACCGAAUCGGGGAAAGGGAAAGGGGAAAGGGAAAGUAUUAUGUUACGCCGUUCGGAUCUGCACUU: 0.178
UCCUGUGCUACACAUCGUAUGUACCGAAUCAAACCCCCAAACCCCCAAACCCCCCCAAAAAAGUAUUAUGUUACGCCGUUCGGAUCUGCA: 0.833
UCAAGUCCUGUGCUACACAUCGUAUGUACCGAAUCGGCCCGGCCCGGGCCCGGGAAAGUAUUAUGUUACGCCGUUCGGAUCUGCACUUCC: -1.27
